Results from different studies.
Numbered parts are unrelated; each lists some results of a single study. Substitutions count along the parent as printed.

Block 1
Target: Microphthalmia-associated transcription factor, full length (MITF, Homo sapiens, UniProt O75030-10, residues 1-413)
Technique: protein-binding microarray
Molecule type: double-stranded DNA, one strand shown
Medium: in vitro
Tested at: not given
Notes: k-mer, scored over probes, only values ≥0.25
Direction: higher = stronger binding
Measurement: E-score
CGCGTGC: 0.355
ACGCGAC: 0.265
GTGACAC: 0.328
CACATGC: 0.42
ACACGAG: 0.405
CATCACA: 0.267
CACGCGA: 0.409
CGGTCAC: 0.324

Block 2
Target: XBP1, bZIP domain (human)
Technique: DHFR protein complementation
Medium: yeast
Notes: single substitutions, most at no-binding floor
Relative to: wild-type JUN-FOS pair
Direction: higher = stronger binding
Measurement: binding fitness
Starting sequence: JUN, bZIP domain (human); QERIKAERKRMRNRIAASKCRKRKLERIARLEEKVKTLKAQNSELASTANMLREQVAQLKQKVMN; partner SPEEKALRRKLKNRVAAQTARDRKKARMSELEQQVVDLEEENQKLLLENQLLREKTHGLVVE
K39A: -1.28 natural log
R53H: -1.49 natural log
A40L: -0.881 natural log
V56T: -1.26 natural log
K36Y: -1.29 natural log
S43W: -1.23 natural log
Q41E: -0.705 natural log
A29S: -0.93 natural log

Block 3
Target: RNA binding protein fox-1 homolog 2, RRM domain, GST-SBP tag (RBFOX2, Homo sapiens, UniProt O43251-10, residues 100-194)
Technique: RNA Bind-n-Seq
Molecule type: RNA
Medium: in vitro
Tested at: 365 nM
Notes: natural RNA segment, single round, ends assumed
Relative to: no-protein control
Direction: higher = stronger binding
Measurement: RBNS enrichment (R)
Residues (chain): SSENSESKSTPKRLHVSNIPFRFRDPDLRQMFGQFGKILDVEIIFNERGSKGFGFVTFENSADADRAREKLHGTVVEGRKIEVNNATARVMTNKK
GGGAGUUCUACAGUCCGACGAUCCUCUACUCACUGAGCUAGGAUUAGGGAGGGUUAUUGCCCCAACCAUUGCAAUGGGAGGUGGAGGGACAGGCUCAGCCUCCUCAUUGUCUAAAUGAGGCCUAAAUGUGUGAUGGAAUUCUCGGGUGCCAA: 0.553
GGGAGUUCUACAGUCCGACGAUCCUCCUUUCCCCCCCGACCCUAUUCAGGUUUUAAGUCAAAAAUGUCGAUAUGUCAUUAUGCACUUUACAGAUGAGGGGAGGGGCCGCAGUGCGCAGAACCCACCCCACCCCUGGAAUUCUCGGGUGCCAA: 0.305
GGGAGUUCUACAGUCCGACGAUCAGCCUGGCCAUCCCCAAGCCUUCAACAGAAGCUGUGCUGCCACGGCAGGCCCAGGCCAGCCAGUGCCCGAGGCCAGGAAGGCCGGGCCGUGGAGGUCCUGUCCACAGCUGUGGAAUUCUCGGGUGCCAA: 0.338
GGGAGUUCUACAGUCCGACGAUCUGGACAGAUGGAUUCUAGUGUGACUUGUGACUGUGAGGUUUCCUAUAACAUAUUUAUAAAUGUUACUCAGGUUAAAAGUAUUUAAGAAUACAGUUAACUAAUUGUAAAUAUGGAAUUCUCGGGUGCCAA: 0.544
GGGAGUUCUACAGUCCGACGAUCAGAUUAUUCAAUAAUUGAGAAACUUUAUGUGUAAUCAUGAGAGUAUAAGAAUCUGGAUUAUCUAACAUUGUUAGCCCUGUGUAUGUACAGUUCAAAAAGUUCAUUUAUAAUGGAAUUCUCGGGUGCCAA: 0.545
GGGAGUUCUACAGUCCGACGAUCUCUGUAAAGAUGCUUUAGAUUAGACUGUCAUGUCUCAGUGUCUAUCUGUAUAUAUUAUUUGAUAUUCAGAGAAUCUAAAGCACUCGUCUACUGUUUUAAUGAGAUUUAACUGGAAUUCUCGGGUGCCAA: 0.444
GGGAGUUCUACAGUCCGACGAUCUAUUAACUUAAAUAGCCAUUGAGGAGUUAGAAGAUGAAUUGUUCAUGAAGUCGGUGUUACAUAAAAGUAGGUGAUAUGUAAGUUUUCUGAUAACAAGGUUCUAAUAGUGUUGGAAUUCUCGGGUGCCAA: 1.11
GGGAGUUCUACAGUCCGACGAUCUCUGGCAUGUGAGUGCAUAUGUGUGACUGCCCCACUGUGGGACCUGCCACAUCCCUCCAUCCAUGUCUUUUCUGUGUCCUUUGCACGUGUGAGUGCUCGAGUGUAUGUGCUGGAAUUCUCGGGUGCCAA: 5.48

Mixed results
Starting sequence: viral docking peptide; TSVRRALFTGGSD
F8R  normalised enrichment score (CCNB2, cyclin fold, Cln2 fusion (human); yeast growth competition, sequencing; yeast; strong parent motif; relative to: not given, higher = stronger binding): 0.324

For quick reference, copied from above (block 2):
A40L: -0.881 natural log
V56T: -1.26 natural log
K39A: -1.28 natural log
